Experimental data of several laboratories.
Compare with care: the assays were run in different laboratories. ± marks the error that the study gave. Values after ≈ are worked out from the molar mass of the structure shown.

satraplatin — LD100 (toxicity; zebrafish larvae; 1 to 1000 µM, 24 h, without KCN): not toxic
CCCCCCCCCCCCCCCC(=O)NCCCC[C@H](NC(=O)CNC(=O)[C@H](CO)NC(=O)CNC(=O)[C@H](CCC(N)=O)NC(=O)[C@H](Cc1c[nH]cn1)NC(=O)[C@H](Cc1c[nH]c2ccccc12)NC(=O)[C@H](CC(N)=O)NC(=O)CNC(=O)[C@@H](NC(=O)[C@H](CO)NC(=O)[C@H](CC(=O)O)NC(=O)[C@H](CC(C)C)NC(=O)[C@@H](NC(=O)[C@H](CCCCN)NC(=O)[C@H](CC(N)=O)NC(=O)[C@H](CO)NC(=O)[C@H](CCCNC(=N)N)NC(=O)[C@H](CCCNC(=N)N)NC(=O)[C@@H](NC(=O)[C@H](Cc1c[nH]c2ccccc12)NC(=O)[C@H](CCC(=O)O)NC(=O)[C@H](CCCCN)NC(=O)[C@H](CO)NC(=O)[C@H](CCC(=O)O)NC(=O)[C@H](CCC(=O)O)NC(=O)[C@H](CC(C)C)NC(=O)[C@H](CC(=O)O)NC(=O)[C@H](CO)NC(=O)[C@H](CCCCN)NC(=O)[C@@H](NC(=O)[C@H](CCCCN)NC(=O)[C@H](CC(N)=O)NC(=O)[C@H](CC(C)C)NC(=O)[C@@H](NC(=O)[C@@H](NC(=O)[C@H](CO)NC(=O)[C@@H](NC(=O)[C@H](CC(=O)O)NC(=O)[C@@H](NC(=O)[C@@H]1CCCN1C(=O)[C@H](CC(=O)O)NC(=O)[C@H](CC(C)C)NC(=O)[C@H](C)NC(=O)[C@@H](N)C(C)C)[C@@H](C)CC)[C@@H](C)CC)[C@@H](C)CC)C(C)C)[C@@H](C)CC)[C@@H](C)CC)[C@@H](C)CC)[C@@H](C)CC)C(=O)O — solubility (PBS): 1.34 ± 0.12 mg/mL (≈ 251 µM)
CC[C@@H](C(N)=O)N1CCCC1=O — terminal half-life (LC-MS/MS; rat, paraoxon-induced status epilepticus, whole blood; oral, 50 mg/kg levetiracetam, added: atropine 5 mg/kg): 1.28 h
N-methyl-N′-nitro-N-nitrosoguanidine — dose limiting by cytotoxicity (Phenion FT skin model; concentration not given): 2 µg/cm²
C=C(C)[C@@H]1[C@H]2OC(=O)[C@@H]1[C@]1(O)C[C@H]3O[C@]34C(=O)O[C@H]2[C@]14C — lethality (male NIH-NCI Swiss mice; intraperitoneal, 2 mg/kg): 25%
CCCSc1nc(N[C@@H]2C[C@H]2c2ccc(F)c(F)c2)c2nnn([C@@H]3C[C@H](OCCO)[C@@H](O)[C@H]3O)c2n1 — Tmax (STEMI patients, plasma; oral, 180 mg loading dose, median, added: morphine): 12 h
Cc1cc(N(CCOS(C)(=O)=O)CCOS(C)(=O)=O)ccc1C(=O)O — Cmax (mouse, plasma; intravenous, 20 mg/kg of bendamustine, as bendamustine equivalents): 18 µg/mL
C[C@H](NC(=O)[C@@H]1CCCN1C(=O)[C@H](CC(N)=O)NC(=O)[C@H](Cc1c[nH]c2ccccc12)NC(=O)[C@@H]1CSSC[C@H](NC(=O)CN)C(=O)N1)C(=O)N[C@H]1CSSC[C@@H](C(N)=O)NC(=O)[C@H](Cc2ccc(O)cc2)NC(=O)[C@H](Cc2c[nH]cn2)NC(=O)[C@H](CCCCN)NC(=O)CNC1=O — remaining peptide (RP-HPLC; mouse serum 25% in water; 50 µM, 24 h, 37 °C): 0%
N-methyl-N′-nitro-N-nitrosoguanidine — micronucleus induction (EpiDerm EPI-200-MNA skin tissue): positive
O=C(Nc1ccccc1)c1cc([N+](=O)[O-])ccc1Cl — Cmax (LC-MS/MS; Sprague-Dawley rat, male, plasma; intravenous, 2.5 mg/kg): 0.127 µg/mL
CCCCCCCCCCCCCCCC(=O)NCCCC[C@H](NC(=O)CNC(=O)[C@H](CO)NC(=O)CNC(=O)[C@@H](NC(=O)[C@H](CO)NC(=O)[C@H](CC(=O)O)NC(=O)[C@H](CC(C)C)NC(=O)[C@@H](NC(=O)[C@H](CCCCN)NC(=O)[C@H](CC(N)=O)NC(=O)[C@H](CO)NC(=O)[C@H](CCCNC(=N)N)NC(=O)[C@H](CCCNC(=N)N)NC(=O)[C@@H](NC(=O)[C@H](Cc1c[nH]c2ccccc12)NC(=O)[C@H](CCC(=O)O)NC(=O)[C@H](CCCCN)NC(=O)[C@H](CO)NC(=O)[C@H](CCC(=O)O)NC(=O)[C@H](CCC(=O)O)NC(=O)[C@H](CC(C)C)NC(=O)[C@H](CC(=O)O)NC(=O)[C@H](CO)NC(=O)[C@H](CCCCN)NC(=O)[C@@H](NC(=O)[C@H](CCCCN)NC(=O)[C@H](CC(N)=O)NC(=O)[C@H](CC(C)C)NC(=O)[C@@H](NC(=O)[C@@H](NC(=O)[C@H](CO)NC(=O)[C@@H](NC(=O)[C@H](CC(=O)O)NC(=O)[C@@H](NC(=O)[C@@H]1CCCN1C(=O)[C@H](CC(=O)O)NC(=O)[C@H](CC(C)C)NC(=O)[C@H](C)NC(=O)[C@@H](N)C(C)C)[C@@H](C)CC)[C@@H](C)CC)[C@@H](C)CC)C(C)C)[C@@H](C)CC)[C@@H](C)CC)[C@@H](C)CC)[C@@H](C)CC)C(=O)O — solubility (water): 20.3 ± 1.4 mg/mL (≈ 4290 µM)
C[C@H](Cc1ccc(O)c(O)c1)[C@@H](C)Cc1ccc(O)c(O)c1 — amount in dermis (human skin; 3% solution, 8 h, skin UV-treated 10 min): 11.1 ± 1.94 µg
CC(C)C[C@H](NC(=O)[C@@H]1C[C@@H](O)CN1C(=O)[C@H](Cc1ccccc1)NC(=O)[C@H](CO)NC(=O)[C@H](C)NC(=O)[C@H](Cc1ccccc1)NC(=O)[C@@H](NC(=O)[C@H](CCC(=O)O)NC(=O)[C@H](Cc1c[nH]cn1)NC(=O)[C@@H](NC(=O)[C@@H](NC(=O)[C@H](CCC(N)=O)NC(=O)[C@H](C)NC(=O)[C@@H](N)CC(=O)O)[C@@H](C)O)C(C)C)C(C)C)C(=O)N[C@@H](CC(=O)O)C(=O)N[C@@H](CO)C(=O)N[C@@H](CC(=O)O)C(=O)NCC(=O)N[C@H]1CSSC[C@@H]2NC(=O)[C@H](C)NC(=O)[C@@H]3CCCN3C(=O)[C@H](CC(N)=O)NC(=O)[C@H](Cc3c[nH]c4ccccc34)NC(=O)[C@H](CSSC[C@@H](C(N)=O)NC(=O)[C@H](Cc3ccc(O)cc3)NC(=O)[C@H](Cc3c[nH]cn3)NC(=O)[C@H](CCCCN)NC(=O)CNC2=O)NC1=O — degradation to non-isomer products (RP-HPLC; mouse serum 25%; 50 µM, 6 h, 37 °C): 21.9 ± 2.33%
O=C(O)c1cc(-c2ccc(-c3cc(CO)on3)cc2)c2ccc(-c3ccc(C(F)(F)F)cc3)cc2c1 — MRT(0-t) (rat Wistar male; intravenous, 0.5 mg/kg, 24 h): 0.703 h

Some of these lines once more:
satraplatin — LD100 (toxicity; zebrafish larvae; 1 to 1000 µM, 24 h, without KCN): not toxic
CCCCCCCCCCCCCCCC(=O)NCCCC[C@H](NC(=O)CNC(=O)[C@H](CO)NC(=O)CNC(=O)[C@@H](NC(=O)[C@H](CO)NC(=O)[C@H](CC(=O)O)NC(=O)[C@H](CC(C)C)NC(=O)[C@@H](NC(=O)[C@H](CCCCN)NC(=O)[C@H](CC(N)=O)NC(=O)[C@H](CO)NC(=O)[C@H](CCCNC(=N)N)NC(=O)[C@H](CCCNC(=N)N)NC(=O)[C@@H](NC(=O)[C@H](Cc1c[nH]c2ccccc12)NC(=O)[C@H](CCC(=O)O)NC(=O)[C@H](CCCCN)NC(=O)[C@H](CO)NC(=O)[C@H](CCC(=O)O)NC(=O)[C@H](CCC(=O)O)NC(=O)[C@H](CC(C)C)NC(=O)[C@H](CC(=O)O)NC(=O)[C@H](CO)NC(=O)[C@H](CCCCN)NC(=O)[C@@H](NC(=O)[C@H](CCCCN)NC(=O)[C@H](CC(N)=O)NC(=O)[C@H](CC(C)C)NC(=O)[C@@H](NC(=O)[C@@H](NC(=O)[C@H](CO)NC(=O)[C@@H](NC(=O)[C@H](CC(=O)O)NC(=O)[C@@H](NC(=O)[C@@H]1CCCN1C(=O)[C@H](CC(=O)O)NC(=O)[C@H](CC(C)C)NC(=O)[C@H](C)NC(=O)[C@@H](N)C(C)C)[C@@H](C)CC)[C@@H](C)CC)[C@@H](C)CC)C(C)C)[C@@H](C)CC)[C@@H](C)CC)[C@@H](C)CC)[C@@H](C)CC)C(=O)O — solubility (water): 20.3 ± 1.4 mg/mL (≈ 4290 µM)
